Assay results collected from several papers.
Each numbered part is a random draw from the data of one study; scales do not carry over between parts.

Sample 1
Target: Interferon regulatory factor 3, full length, phosphomimetic (IRF3, Homo sapiens, UniProt Q14653, residues 1-427, S386D/S396D/S398D/S402D/T404D/S405D)
Method: protein-binding microarray
Form: double-stranded DNA, one strand shown
Medium: in vitro
Tested at: 2540 nM top
Setting: 60-bp whole probe
Together with: salmon DNA 0.4 mg/ml
Reference: random background probes
Direction: higher = stronger binding
Shared flanks, not repeated: GCCTAGCAC … GTCTTGATTCGCTTGACGCTGCTG
Construct (chain): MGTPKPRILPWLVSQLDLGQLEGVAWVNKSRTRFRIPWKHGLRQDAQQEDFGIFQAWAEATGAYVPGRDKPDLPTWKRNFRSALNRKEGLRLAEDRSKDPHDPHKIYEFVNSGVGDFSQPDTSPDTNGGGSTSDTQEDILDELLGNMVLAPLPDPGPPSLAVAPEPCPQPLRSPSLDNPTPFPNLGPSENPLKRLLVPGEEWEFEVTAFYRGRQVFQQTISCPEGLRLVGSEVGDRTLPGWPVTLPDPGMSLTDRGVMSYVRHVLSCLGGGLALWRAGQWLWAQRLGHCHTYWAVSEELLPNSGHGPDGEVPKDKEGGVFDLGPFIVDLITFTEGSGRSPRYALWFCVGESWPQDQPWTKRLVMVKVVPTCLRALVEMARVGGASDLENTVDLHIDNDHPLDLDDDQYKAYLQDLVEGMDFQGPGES
Oligonucleotide | fitted relative affinity [z-score]
TTTGATCTCAGTATCGATTAGTGCTAG | 1.22
TCATCTCTGTTTTTGCTACTGTGCTAG | 1.36
TCCTGGAGTCTATGCTGCTGGTGCTAG | -0.706
AAGCCAGCCAAGGCCACTGTGTGCTAG | -1.5
TTAGGTTTCCTGCTGCTTTAGTGCTAG | 2.41
GACGAACTGAGACTGGACACGTGCTAG | -0.264
TTATATTTCGGGTTTCGATTAGTGCTA | 2.75
AACTGCATCCCAGGAGCTGGGTGCTAG | -0.396
TCACATATTCTCTTCTTACTGTGCTAG | 1.38
AACGATTTCGGGACTGGAGACGTGCTA | 1.54
GACGGTTTCCTTTTCCTGCCGTGCTAG | 10.6
TGTTATTAAAATTTCATGAAGTGCTAG | 0.251
TTAGGTTGCGGGACTGGGTTAGTGCTA | 1.21
TGGTATTTTTTTCTAATTGAGTGCTAG | 1.03
TTAGGTATGGGTCTCGGTTAGTGCTAG | -0.394
TTAGGTATCGACTTTCGGTTCGTGCTA | 2.8
TTAGATTTCAGTATGGATTAGTGCTAG | 0.914
GGTTTTCTCTGGTTCTTGCTGTGCTAG | 0.894

Sample 2
Target: Histone acetyltransferase KAT6A, both winged helices, GST fusion (KAT6A, Homo sapiens, UniProt Q92794, residues 1-181)
Method: protein binding microarray
Form: double-stranded DNA, one strand shown
Medium: in vitro
Tested at: not given
Setting: 8-mer, flanks averaged, mean of 2 arrays, mostly near background
Reference: not given
Direction: higher = stronger binding
Residues (chain): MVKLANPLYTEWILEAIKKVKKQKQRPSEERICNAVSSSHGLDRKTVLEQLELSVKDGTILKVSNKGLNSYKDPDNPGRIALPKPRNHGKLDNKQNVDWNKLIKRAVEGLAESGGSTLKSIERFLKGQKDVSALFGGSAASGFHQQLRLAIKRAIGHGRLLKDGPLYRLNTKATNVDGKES
Oligonucleotide | E-score
CCAGGCTC | -0.0964
TCCTGGCA | -0.148
TCCTGCGA | -0.0439
AACAGGGA | -0.126
CTAGTGGC | -0.098
CCGAGCCC | 0.0303
ACTAAACG | 0.0147
AACCCTGA | -0.144
ATCGTAAC | 0.111
AACTATCA | 0.00307
GAGCAAAA | -0.23
CTCACTGA | -0.168
AGTATACT | -0.239
CGAGACAA | -0.155
TCAGCTGA | -0.171
CACAAATG | -0.155
AGTTTAGG | -0.19
CGTAACAG | 0.0621
CTCTGAAA | -0.107
GATCGCAC | 0.141
CCTCTCAA | -0.0974
CAGAGGAG | -0.237
GCACGGCC | 0.271
AGCCTGGC | -0.201
CAAGCGCG | 0.311

Sample 3
Target: RNA binding protein fox-1 homolog 2, RRM domain, GST-SBP tag (RBFOX2, Homo sapiens, UniProt O43251-10, residues 100-194)
Method: RNA Bind-n-Seq
Form: RNA
Medium: in vitro
Tested at: 365 nM
Setting: natural RNA segment, single round, ends assumed
Reference: no-protein control
Direction: higher = stronger binding
Shared flanks, not repeated: GGGAGUUCUACAGUCCGACGAUC … UGGAAUUCUCGGGUGCCAA
Residues (chain): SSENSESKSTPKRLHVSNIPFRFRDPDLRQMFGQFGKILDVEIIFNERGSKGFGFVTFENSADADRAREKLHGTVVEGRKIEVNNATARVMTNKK
Oligonucleotide | RBNS enrichment (R)
UGUCUUUCUGGUGCCCAAACUUUCAGGCACUUUUCAAAUUUAAUAAGGAACCAUGUAAUGGUAGCAGUACCUCCCUAAAGCAUUUUGAGGUAGGGGAGGUAUCCAUUCAU | 0.765
ACCCUGGUUUUUUUCCUGUGCCCACUCCGGCUUGUCCUCAUCUCUACCCAUCCCCUGAUGCCCAGGUCACCGGGAGGGCUGCUGGGAGCCUCUCCUGUCCCCGCCGGGCA | 0.474
GUUAGAAUGAUUCCAUCACUUAUACAUUGUUUAAAAUGCUAAUAAAGUAACUUGCUUUGUAAGAAUUCAUUAGAGUGGACUUUUGUUAUCUCCAUUGUGCAUUUGAUAAA | 0.501
UUCCUAAGUCUCAAGGGCUAGUUUCCCUGAGGAGCCCAGGCCUAACCCUCUCUCUCUCAAGCUGCCACAUGUAACGCCCUUGCUGCUUCUGUGUGUGGGUGAUUGGAUGU | 0.361
GACCUUCUAGGGUCUGGCUGGGGUCAUCCUAGGUAUGGGUGACCGUCCCUGAGACAUAAGCGAGGUAGAUUCAGCCAUCCUCACCCUCAGACUUGAGGUCCCCACCCAGG | 0.246
UCCUUGAGAGCCCCGCCCUGCGCCCGCGUGGUGCCUGCCUGCCAGGCCUGGGGCGUGCAGCCGGGGAGGCGGGUGGGGUGAGGCAGGCAGGCAGCCAGCCCCCUGCAGUG | 0.747
CGGCCCUGUGCUUAAGACACUCCUGCUGCCCCGUCUGAGGGUGGCAAUUAAAGUUGCUUCACAUCCUCGCCUGCCUCUGGGUCUCUGUCUCCCUUGGCCUGGGCAGCCUG | 0.305
UGCUGCUGCUGAUCCGGGGACCGCUGUCUUCCCUCCCAUACGCCUUUCAUCCCUCCUUCUAGGGCCUAUGGCAGUUCUCCCAGGAUGUGUGGCGAGAGCCUGGGCCAGCC | 0.54

Sample 4
Target: Ras GTPase-activating protein-binding protein 1, RRM domain (G3BP1, Homo sapiens, UniProt Q13283)
Sequence of UniProt Q13283 (whole entry, looked up): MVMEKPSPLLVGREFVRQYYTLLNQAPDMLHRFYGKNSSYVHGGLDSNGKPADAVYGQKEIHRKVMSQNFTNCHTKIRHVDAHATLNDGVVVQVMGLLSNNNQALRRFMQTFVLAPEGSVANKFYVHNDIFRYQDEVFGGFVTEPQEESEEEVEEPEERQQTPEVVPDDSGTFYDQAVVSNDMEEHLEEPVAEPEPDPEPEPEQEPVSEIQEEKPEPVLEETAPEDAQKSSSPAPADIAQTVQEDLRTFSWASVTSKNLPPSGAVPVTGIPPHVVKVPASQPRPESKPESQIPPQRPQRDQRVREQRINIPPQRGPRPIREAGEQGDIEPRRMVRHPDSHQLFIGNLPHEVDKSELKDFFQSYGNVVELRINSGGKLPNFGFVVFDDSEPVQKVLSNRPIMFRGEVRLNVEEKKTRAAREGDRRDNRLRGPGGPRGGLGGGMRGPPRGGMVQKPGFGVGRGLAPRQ
Method: RNA Bind-n-Seq
Form: RNA
Medium: in vitro
Tested at: 1 µM
Setting: whole 134-nt RNA, ends assumed
Together with: 150 mM KCl
Reference: input library
Direction: higher = stronger binding
Shared flanks, not repeated: GGGAGUUCUACAGUCCGACGAUC … UGGAAUUCUCGGGUGUCAAGG
Oligonucleotide | log2 enrichment
CAAGUCCUGUGCUACACAUCGUAUGUACCGAAUCGGGUUUUUGGGAAAGGGAGGGAAAGUAUUAUGUUACGCCGUUCGGAUCUGCACUUC | 0.606
UGUGCUACACAUCGUAUGUACCGAAUCGGGGAAAAAAAGGGGAAAAAAAGGGGUUUUUGGGGAAAGUAUUAUGUUACGCCGUUCGGAUCU | 1.16
UCCUGUGCUACACAUCGUAUGUACCGAAUCGGGCCCCCCGGCCCCCCGGGCCCCCCGGGAAAGUAUUAUGUUACGCCGUUCGGAUCUGCA | -0.431
CCUGUGCUACACAUCGUAUGUACCGAAUCGGGUUUUUUGGGUUUUUUGGGGUUUUUUGGGGAAAGUAUUAUGUUACGCCGUUCGGAUCUG | -0.154
GGUGGAAUCCAUAGAGCUCCCCAUGGACAACAAGACCAAUAAGAGGCGUGGGUUCUGCUUUAUUACCUUUAAGGAAGAAGAACCAGUGAA | -0.446
UCAAGUCCUGUGCUACACAUCGUAUGUACCGAAUCGGUUUGGGGUUUGGUUUGGAAAGUAUUAUGUUACGCCGUUCGGAUCUGCACUUCC | -0.273
UGGCCCUGGUGGCAUGCGGGGAGGAAGAGGUGGCCUCAUGGAUCGUGGUGGUCCCGGAGGAAUGUUCAGAGGUGGCCGUGGUGGAGACAG | 0.806
UGGCCCUGGUGGCAUGCGGGGAGGAAGAGGUGGACUCAUGGAUCGUGGUGGUCCCGGUGGAAUGUUCAGAGGUGGCCGUGGUGGAGACAG | 0.7
ACCAUGCAGGUGGCCAUCUUUGGGAAGUGGGGCAAGGGGGGGAUAGGGAGGGGGGUAACACUUUGGGAACAGGUGGUCCCAGGUCGUUUC | -0.504

Some of these lines once more (sample 1):
Oligonucleotide | fitted relative affinity [z-score]
TGGTATTTTTTTCTAATTGAGTGCTAG | 1.03
GACGAACTGAGACTGGACACGTGCTAG | -0.264
TTAGGTTTCCTGCTGCTTTAGTGCTAG | 2.41
TTATATTTCGGGTTTCGATTAGTGCTA | 2.75
TCCTGGAGTCTATGCTGCTGGTGCTAG | -0.706
TCATCTCTGTTTTTGCTACTGTGCTAG | 1.36
TGTTATTAAAATTTCATGAAGTGCTAG | 0.251
